Experimental data from different studies.
Every numbered part comes from another study and shows a few of its results, in no order.

Study 1
Target: Protein max, full length (MAX, Homo sapiens, UniProt P61244-2, residues 1-151)
Technique: protein-binding microarray
Molecule type: double-stranded DNA, one strand shown
Sample: in vitro
Concentration: not given
Notes: k-mer, scored over probes, only values ≥0.25
Direction: higher = stronger binding
| Sequence | E-score |
| --- | --- |
| CATGCCGG | 0.364 |
| CTCATGGC | 0.371 |
| ACGTTCCT | 0.269 |
| ACGAGACA | 0.288 |
| AGCTCACG | 0.312 |
| CATCTGCA | 0.264 |
| CACGAGCC | 0.319 |
| CGTGAAAC | 0.304 |
| CAGGCATG | 0.379 |
| ACAACACG | 0.37 |
| CACCTGCC | 0.343 |
| ACGTGGCC | 0.419 |
| AAAACATG | 0.271 |
| ACGCGGGA | 0.382 |
| CACGTTCC | 0.398 |
| CCACGCAC | 0.395 |
| GTGGGACA | 0.343 |
| ATGCGCTC | 0.289 |
| AGTGCACG | 0.372 |
| GCACGAGA | 0.395 |
| AAATGTGA | 0.286 |
| GTACACGA | 0.33 |

Study 2
Target: Centromere-binding protein 1, full length, N-terminal tag (CBF1, Saccharomyces cerevisiae, UniProt P17106, residues 1-351)
Sequence of UniProt P17106 (whole entry, looked up): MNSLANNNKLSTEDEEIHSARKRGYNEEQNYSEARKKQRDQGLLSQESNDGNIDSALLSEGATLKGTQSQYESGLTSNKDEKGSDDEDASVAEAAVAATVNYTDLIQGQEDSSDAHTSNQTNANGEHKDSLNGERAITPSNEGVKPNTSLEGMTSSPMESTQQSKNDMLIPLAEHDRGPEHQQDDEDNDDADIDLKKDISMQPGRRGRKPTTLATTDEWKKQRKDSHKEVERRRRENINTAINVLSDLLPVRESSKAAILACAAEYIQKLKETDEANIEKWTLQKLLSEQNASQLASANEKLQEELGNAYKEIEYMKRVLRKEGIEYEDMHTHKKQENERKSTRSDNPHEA
Technique: protein-binding microarray
Molecule type: double-stranded DNA, one strand shown
Sample: in vitro
Concentration: 0.8 µM
Notes: whole 60-bp probe, no competitor
Direction: higher = stronger binding
Shared flanks, not repeated: … GTCTTGATTCGCTTGACGCTGCTG
| Sequence | fluorescence intensity [a.u.] |
| --- | --- |
| CCTAACTACTATAGCTGCGTGGCATAGCTTCGTACA | 489 |
| CTATGAGACATTTCTGATGTACTTCCACTTCCTTTC | 474 |
| CTAATATAGATGCAGGTGATTACTAGTGGGGCATTC | 1040 |
| CTATTTCCTAATGGGCACGCGACATACGTTTCATTC | 887 |
| TGTACGAAGCTATACGTGGTCTCTATAGTAGTTAGG | 502 |
| GAATAAATAGACACTCACATGTATATTAATTTATAG | 1060 |
| GAAACTGGCAGCAATGGTCATCAGTGGGCTCATTAG | 505 |
| GAAGGGACTCCTCGCTTCACCAGATCTTATGTATAG | 535 |
| GAATATGTATTCATGCACGATGCAAGCATTCAATAG | 533 |
| CTAATCAACAACCGTCATGCAGCTGTTGTATCATTC | 499 |
| GAAGTAAGCCTCGAGGTCACGAGGATATTATTTTAG | 3430 |
| GAACTTTGTGTGTACCATCACGTTTTTTGTTAATAG | 2130 |
| CTAGATGCTTGGGATCACGTATGCCGTTAACTCTTC | 603 |
| GAATGCAGTCGCAAGCACGTGCATGCGATTTTGTAG | 13100 |
| GAAAAAAAAAAAAAACATGTGGTGATGAAAACGTAG | 863 |
| GAATTTAAAGTTAACATCACCGCTGAATTACATTAG | 491 |
| CTAAAGCACGGCGGACGTGTCACCCGGACCGAATTC | 610 |
| TGTACGAAGCTATATCACGTGCATATAGTAGTTAGG | 19200 |
| CCTAACTACTATATTCATGTGAAATAGCTTCGTACA | 526 |
| GAATAATTCAGCCGTCACGCATGAACAGAAGGATAG | 652 |
| GAAGTCAAGCATTGAAACGTGCAACATGAATATTAG | 643 |
| GAAATTAATTGATATCATCAGAATTTGACGAAATAG | 519 |
| GAACTCGCCCTCACACACGTTATAGTTATGTCGTAG | 568 |
| CTATATTGTGAACATCATGACAAAACGAAATGATTC | 556 |
| TGTACGAAGCTATATCATGCGGATATAGTAGTTAGG | 571 |

Study 3
Target: RNA binding protein fox-1 homolog 2, RRM domain, GST-SBP tag (RBFOX2, Homo sapiens, UniProt O43251-10, residues 100-194)
Technique: RNA Bind-n-Seq
Molecule type: RNA
Sample: in vitro
Concentration: 365 nM
Notes: natural RNA segment, single round, ends assumed
Relative to: no-protein control
Direction: higher = stronger binding
Shared flanks, not repeated: GGGAGUUCUACAGUCCGACGAUC … UGGAAUUCUCGGGUGCCAA
Target sequence (chain): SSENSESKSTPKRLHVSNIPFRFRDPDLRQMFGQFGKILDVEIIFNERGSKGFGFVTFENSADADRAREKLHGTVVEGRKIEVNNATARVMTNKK
| Sequence | RBNS enrichment (R) |
| --- | --- |
| CAGACACAAAGGCCCCUCGGCUGGGGGGCAGUGGGCAUGGAGCUGGCCUGCUAACAGCCCCCCGAUCCGUCAGGGGGAAUAACUCUGGGAGUCACUGGAUAUCAGUGGAG | 0.493 |
| CUUAUAAGCAUGUGAAGAUGUGAUCUUUGUGAUGUUACUUGUACAAACAUAUAUACAUAUCUAUACAUAUCUUUUGAAGUGUUGAAAGGAAUAGUACUUUAUAUUCUUUA | 1.25 |
| AGCAAGAGACUGAAUGUUUCCUGAAGUAUUACCAUGACCCAAGGCAGAGAGAAACCAUGGGAACUCCCUGUGGGGAACACUCAAGAAGGCCAAGCCUCAGCAGGAAAGUG | 0.426 |
| UGAAGCUACAGCAUAUCUAACCAGAGAAUUUCUGAUUCCUUAUACUGUGAUUAUAUUAUAUUGAGGCAUUUGUAGUGCAGCUGAAGACUGAAUUUAUGCCUUUUGUAAAC | 0.36 |
| AAGACUUAAGCCUUUUUUUAAGUAAUUAAUACUUAAAAAAAAAGAUCCUGGCAUCUAUUUAUGCAACUAAAUACUUUUCAGAAAUGGUAUAUAAAAGGCUACAGUUUAAU | 0.778 |
| AUCUAGCAGGGUGCCGGGAGGAGCUGAGCCCCCGGAGGUGGGCUCCUGGUGACGGGUGUCCAAGAAGCGGUUUCCUUGGGAGCUUCUGCCUCCGUGGGCCUCUCAGCCCG | 0.403 |
| CCUGGCACAGCAGCCUUCUACUCAUCCACUGCAUGACCCGGAGGCUAGGAGAGCCUGGGCUUCCUCCUUGCGGUGGGGCCAGCCUGCAAAGGGCCACUGACCUGGCAAGC | 2.72 |
| UUCUGCUGUCAGAGUGUCUAAGAGACCCAGUUGGGCUGAAAGACAUGCUCUGUGCACAGGCACAGAGGACAUCUAACAAGAUCAUCGGACCCUAAUGCAAGUUCCAUGUU | 0.269 |
| CCUCUGGGACCCCAGCUGCUCUAAGCCCAGGAUCUCUUUCCCCAAGGACCCAGCCCUCGCCUCUGCGAGAAUGAACAUAUUUGAUAGAUUUUUCUUAACAAGUUAGAAAA | 0.364 |
| ACUGGUGAAUUGGGGGAAAUAGAAGGAACUAGUAACUGAGACUCCUCCAGCCUCCUCCCUAUUGGAAUCCCAAUGGCUCCUGGAGUAGGAAAAAAGUUUAAACUACAUUC | 0.328 |
| GCUUCUAAAGUGUUCAUCCUGAUCACCUGAAGGGUGUGAUUUUAGCAGAGCUGAGAGUGGCUGGUGGUGAUGUGGCCCCACCCCCUGAGGCACAGAGAAGAGGGAGACAG | 0.674 |
| GGACCCCAGGCUCUGCUCUGCCCUGCCCUGCACCCCCCUCGUCAGAAGUACAUGAGGGGCGCAGAGAUGAGCACACAGCUUUGGGCACGGUCCAGGGCAAACUGAAAUGU | 0.332 |

Study 4
Target: RING finger protein unkempt homolog, zinc fingers 1-6, SBP tag (UNK, Homo sapiens, UniProt Q9C0B0, residues 30-357)
Sequence of UniProt Q9C0B0 (30-357, looked up): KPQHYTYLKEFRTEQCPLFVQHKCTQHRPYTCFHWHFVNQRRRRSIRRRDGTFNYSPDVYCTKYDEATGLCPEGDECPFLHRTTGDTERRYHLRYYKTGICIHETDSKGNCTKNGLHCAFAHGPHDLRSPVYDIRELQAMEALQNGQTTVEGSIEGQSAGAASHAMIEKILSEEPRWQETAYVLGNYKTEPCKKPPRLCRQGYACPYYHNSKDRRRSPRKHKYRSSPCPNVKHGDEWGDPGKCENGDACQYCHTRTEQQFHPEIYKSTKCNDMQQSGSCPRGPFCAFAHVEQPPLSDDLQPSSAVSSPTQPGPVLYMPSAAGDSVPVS
Technique: RNA Bind-n-Seq
Molecule type: RNA
Sample: in vitro
Concentration: 100 nM
Notes: RNA with constant flanks, vertebrate orthologous sites, ends assumed
Relative to: input RNA pool
Direction: higher = stronger binding
Shared flanks, not repeated: GGGAGUUCUACAGUCCGACGAUC … CAACAGAGGAUUGAGCAUCA
| Sequence | bound/input enrichment |
| --- | --- |
| UUGUUUUGUACAGGGCAUUCUCUGUACAAAUUUGUUGUGGUUAUAAAACAAUUAGCAAAACAGCUUACAUUUGUAUUUAUUUUCUAUUCCAUACCUCUACCCCAUGUUUUUUCUCCUCAA | 0.693 ratio |
| GUUGAACAUAAAUGUUUCCACUGGGUUUUGCUUAUAAGAAGAAAUGGACCCAUGCACUUAUAUAGCUUUUUAAUAGCGUUAACCAAUGCAUUUUAGACAUAUUUUGAUGUAUAUAUCUAU | 1.28 ratio |
| AUUCAAACCUGUGGUACCAUGGCCUCAUGUUGAAGGAGUAGAAGUGGACUUAGAGUCUAUUAGAAGAAAAAACAAGGCCAAAAAUGAACAAGAACACCAUGCUGGCAGAGAUUCCCAGAA | 0.373 ratio |
| UUACAGUCAUUGAUGGACUCUAUUUUUUUAUUAUUACUUGGACCUUGGUCGUUUUUAUACUAGCAAUGAAAAAUGUUUUAAUUUGUUUUGUUUUUUUCUUUUUCGGGGGGGGUACGGGGU | 3.17 ratio |
| GUGCCACAGUGGGUUUAUCCCCUCGAUGAGGUGGAGUCCACCUUCGGCAUUCUGUGGUGCCGGAACCAGUCAUCUCCCCAUUCCGUUCCCCACAGACGGGCUUUUGAAAGUCUCUGGGUG | 0.345 ratio |
| GUGACUUUGGAAGUCUGCAGUGUCUCAUUGCAGAUACUACUUAGCUCAGGGCCUGGUGGCUACACAGGUUCUUUCCUUUCCAGUCGGUGGCCUCUCCCGCAAACAUGCUCCGCCACAUCC | 0.39 ratio |
| GAAACUCCCCAUUGUCACUGAGAACCACCAAAUCUGACUUUUACAUUUGGUCUCAGAAUUUAGGUUCCUGCCCUGUUGGUUUUUUUUUUUUUUUUAAACAGUUUUCAAAAGUUAUUAAAG | 0.895 ratio |
| AAAUUCCCCCAUUGUCACUGAGAACCACCAAAUCUGACUUUUACAUUUGGUCUCAGAAUUUAGGUUCCUGCCCUGUUGGUUUUUUUUUUUUUUUUUAGAAAAAAAAACAAAACACCCCAG | 0.323 ratio |
| CACCAACUAUAAACUCAGGGCAGUUCUCCCAGUAUCCUUAUGGUAACAUGAAUCAGGGAUUAGUUAACAAUACAGGGAUGAAUCAGAAUCUUGGCCUUACCAGUAAUCCACCAAUGAAUC | 0.502 ratio |
| UAUUCAGUCAUGGAGAAAAAGUUAUUAAAAUAAUUUUAUGGCACUGCUCUUUACUUUUAUUAGGUUUACUGAAGUUAGGGUUCUUGUUCACAGAAAACAGGAGCUGACUAUUGAGAAAGC | 0.331 ratio |
| AGAAAAUUUUAACCAGGAAUCUGAAGGUAGAAAUACAGGACCCUGGUUAUCUUCCUCACUUAGAAAUAGAUGCACACCUUUGUUCUCUAGAAGGAGGCGAGAGGGACGAGAUGAAUCUUC | 0.878 ratio |
